Measured values collected from several papers.
Method: steady-state kinetics
B1: enzyme (Populus trichocarpa, UniProt A0A2K2BRQ9); chain MVYQKKIVEEVSGWLRIFDDGWVDRTWIGPPQVKFMAEPVPPHEEFIEGVAIRDVTIDENSGLSVRIYLPQHEPDHYTDNSDKLPLIVHFHGGGFCISQADWYMYYYIYSRLARSAPAIVVSVYLRLAPEHRLPAAIDDGFSALMWLRALAQGQESYEPWLNNHGDFNRVFLIGDSSGGNLVHHVAARAGQVDLSPMRLAGGIPVHPGFVRSERSKSEMEQPESPFLTLDMVDRFLKLALPKGCTKDHPFTCPMGHAAPPLDSLNLPPFLLCVAEADLIRDTEMEYYEAMKKANKDVELLINPGVGHSFYLNKIAVDMDPHTAAQTTGLLEGIVEFIKKH
B2: enzyme (UniProt A0A097IUE6); chain TKRAMMATVSSLGIDKATGITKPSKVHRNLPYPEVFEHEQKNKEGEVTKNGTFCVSTGAFTGRSPKDKYFVHQSPSCDTLDWGKINVGVAPDVYKNIYEKAVKHYNENVDSMYVFDGYCGTSPKSRKNVRIITELAWQHHFAKNMFIRPDSEKEVENFNPDFTIINACKVLNKDYKELGLNSDVAVIFNVEEKMAVITGTWYGGEMKKGIFSMMNYWLPLDGIMAMHCSANKGKGGDTALFFGLSGTGKTTLSADPDRYLIGDDEHGWDDHGIFNFEGGCYAKTVNLSKDNEPEIYDAIKRDALLENVIIKSDGEPDYTDTSRTENTRVSYPIYHIDNHEPSGMGGHPTSIIFLTCDAFGVLPPVSRLSGGQAMYHFLSGYTAKVAGTERGVTEPTPNFSACFGAAFLTLHPTKYADLLQKKLDKHQTQCFLINTGWTGGGYGVGKRMSIKATRACVNAVLDGSINKANFTNDEVFGFEVPAELPEVPAQVLNPRAAWSDKEKYDNTRIKLAGMFKDNFKKFIKEGATDYSSYGPK
B3: aspC A106G/A17N/A218G/A278L/A281T/A8Q/D18E/F210I/F212I/F350Y/G15S/G249S/I187A/I279A/I29V/I33V/I341V/I5L/I68L/I71L/L46M/M321L/M380L/N285S/N30D/N64T/S129T/S135A/S273G/S351L/T100S/V125I/V136I/V375I/Y244C (Escherichia coli, UniProt P00509); chain MFENLTAQPADPILSLNELFRADERPGKVDLGVGVYKDETGKTPVMTSVKKAEQYLLENETTKTYLGLDGLPEFGRCTQELLFGKGSALINDKRARTAQSPGGTGGLRVAADFLAKNTSVKRVWISNPTWPNHKAIFNSAGLEVREYAYYDAENHTLDFDALINSLNEAQAGDVVLFHGCCHNPTGADPTLEQWQTLAQLSVEKGWLPLIDIAYQGFGRGLEEDAEGLRAFAAMHKELIVASSCSKNFSLYNERVGACTLVAADSETVDRAFGQMKALARTNYSSPPAHGASVVATILSNDALRAIWEQELTDMRQRIQRLRQLFVNTLQEKGANRDFSFVIKQNGMFSYLGLTKEQVLRLREEFGVYAVASGRINVAGLTPDNMAPLCEAIVAVL
B4: PYCR2 R251C (Homo sapiens, UniProt Q96C36); chain MSVGFIGAGQLAYALARGFTAAGILSAHKIIASSPEMNLPTVSALRKMGVNLTRSNKETVKHSDVLFLAVKPHIIPFILDEIGADVQARHIVVSCAAGVTISSVEKKLMAFQPAPKVIRCMTNTPVVVQEGATVYATGTHALVEDGQLLEQLMSSVGFCTEVEEDLIDAVTGLSGSGPAYAFMALDALADGGVKMGLPRRLAIQLGAQALLGAAKMLLDSEQHPCQLKDNVCSPGGATIHALHFLESGGFCSLLINAVEASCIRTRELQSMADQEKISPAALKKTLLDRVKLESPTVSTLTPSSPGKLLTRSLALGGKKD
B5: gdh (Bacillus subtilis, UniProt P12310); chain MYPDLKGKVVAITGAASGLGKAMAIRFGKEQAKVVINYYSNKQDPNEVKEEVIKAGGEAVVVQGDVTKEEDVKNIVQTAIKEFGTLDIMINNAGLENPVPSHEMPLKDWDKVIGTNLTGAFLGSREAIKYFVENDIKGNVINMSSVHEVIPWPLFVHYAASKGGIKLMTETLALEYAPKGIRVNNIGPGAINTPINAEKFADPKQKADVESMIPMGYIGEPEEIAAVAAWLASKEASYVTGITLFADGGMTQYPSFQAGRG
B6: SCO6712 V290N (Streptomyces coelicolor, UniProt Q9XAL8); chain AKGITARTAPAGGEVRHLKMYAEKLADGQMGYGFEKGKASVPGPLIEVNEGDTLHIEFTNTMDVRASLHVHGLDYEISSDGTAMNKSDVEPGGTRTYTWRTHKPGRRDDGTWRPGSAGYWHYHDHVVGTEHGTGGIRNGLYGPVIVRRKGDVLPDATHTIVFNDMTINNRKPHTGPDFEATVGDRVEIVMITHGEYYHTFHMHGHRWADNRTGILTGPDDPSRVIDNKITGPADSFGFQIIAGEGVGAGAWMYHCHNQSHSDMGMVGLFLVKKPDGTIPGYEPHEHGGATAKSGESGEPTGGAAAHEHEH
B7: ART1 (Homo sapiens, UniProt P52961); chain QSHPITRRDLFSQEIQLDMALASFDDQYAGCAAAMTAALPDLNHTEFQANQVYADSWTLASSQWQERQARWPEWSLSPTRPSPPPLGFRDEHGVALLAYTANSPLHKEFNAAVREAGRSRAHYLHHFSFKTLHFLLTEALQLLGSGQRPPRCHQVFRGVHGLRFRPAGPRATVRLGGFASASLKHVAAQQFGEDTFFGIWTCLGAPIKGYSFFPGEEEVLIPPFETFQVINASRLAQGPARIYLRALGKHSTYNCEYIKDKKCKSGPCHLDNS
B8: enzyme (Methylibium petroleiphilum, UniProt A2SI32); chain PFAQIYLIEGRTEEQKRAVIEKVTQAMMEAVGAPKENVRVWIHDVPKENWGIGGVSAKALGR
B9: enzyme C76S (UniProt A0A0P0CH59); chain MRIALFSDIHANLPALEAVLANMETQQLDAIYCLGDLVGYAPWPNEVVAEIRKRRIPTIAGNYDEGVGLWSPNCGSAYKTDTEKDLGQQSIDFTNNVVTEETRKYLRMLPRQLRLTFMDGSKEENKIELLLVHGSPRKINEYLFEDRPEKSFLKMMEEANADLLFFGHTHKPYHRAMPYEHEGQTRYRHAINIGSVGKPKDGDPRTGYVVVELTPESSLTQKDSIKVEFIRVPYDVETAAQAVEASPLPNEFAQMLRTA
B10: enzyme (Chlamydomonas reinhardtii, UniProt A0A2K3D977); chain ASDSVLAVWRKADAVCFDVDCTITVNDSLDLLAEFMGVKEQVEILTNKAMDGSLSLEQALEERLNIINCSPDDIKRFIKAHPPASRMAPGIKELINSLQARGKAIYLISGGFRELTLPIAAYLGIPKENVFANRMNWQWDDETGMPTKLVGFDMSEPTAHNQGKPQAIARIRQRNPYNTVVMIGDGITDLEAVQTTGGADLFIGSGVVVERPAVAREADWYVYDYTDLLRTMARYSVAMVGSGAWACAAVRMIAQNTQVDDAADEFVDEVRMWVYEEDFEGKKLTEVINQTHTNPKYFPGFDLGPNVVAVPNIVDAVADADLIVFCAPHQFLHHICKQLVGKIKPGAAAISLTKGMRVRPEGPQLISQMVRRLLGIDCCVLMGANIATDIGREQLSEAVIGYDNLDAATLFQKIFQRPYFRVNLLPDPVGAEMCGTLKNIVALGAGMVDGLGLGPNSKAAIIRQGLVEMRAFSKALYPSVRDDTFMESCGVGDLVATCYGGRNRLVACEWTKAQMEGKPRTFEDLETDLLKGQKLQGVLTSNEVQEILKVRGWESQYPLFTTVNRIINGYLPPKYVVEFVAGAKYHIRRPGTDDEEIVPVRPKRPAAAGGVATAPILAA
B11: enzyme (Salvia miltiorrhiza, UniProt G3DSC6); chain MAALLLAPVAAVLAVVLYHIYYRLRFRLPPGPFPWPVVGNLYDIKPVRFRCFAEWAQSYGPILSVWFGSTLNVVVSNSELAKEVLKEKDGQLADRHRSRSAVKLSRDGQDLIWADYGPHYVKVRKVCTVVLFSPKRLELLRPIREDEITAMVESIYNDSTASSGKSVVLKKYLASMAFHNITRLVFGKRFVNSEGAVDKQGQEFKAIAINGLKLGASLAMAEHIPWLRWAFPLDEDAFTQHGARMERLTREIMQEHTLLRQKTGGAKNHFFDALLTLKDEYDLSEDTIIALLWDMIAAGMDTPAISVEWAMAELVRNPRVQQKVQEELDRVIGRDRVMTEVDIPNLPYLQCVVKESLRLHPPTPLMLPHRANTNVEIGGYDIPKGSNVNVNVWAVARDPAVWKNPLEFRPERFVEEGIDIKGHDFRVLPFGAGRRVCPGAQLGIDLTTSMIGHLLHHFSWAPPAGMRTEEINLDENPGTVTYMKNPVEALPTPRLAPHLYKRVAVDTI
B12: enzyme (Burkholderia cenocepacia, UniProt B4E589); chain MTGYDRQSISDTTAKILLEVQAVHFNAEKPFIFTSGWASPVYIDCRKLISYPRVRRALMEMAETTITRDIGFEQIDAVAGGETAGIPFAAWIADRMMVPMQYVRKKPKGFGRNAQIEGHLEEGSRVLLVEDLTTDSRSKINFVNALRTAGATVNHCFVLFHYNIFKESVSVLKDIDVDLHALATWWDVLRVAKASGYFETKTLDEVEKFLHAPAEWSAAHGGATAPKE

For `B1 (enzyme)`, the Km was 37 µM (O=C(OCc1ccccc1)c1ccccc1O; pH 7, 25 °C).
`spt R378K (Sphingomonas paucimobilis)` gave a Km of 560 µM (CCCCCCCCCCCC(=O)SCCNC(=O)CCNC(=O)[C@H](O)C(C)(C)COP(=O)(O)OP(=O)(O)OC[C@H]1O[C@@H](n2cnc3c(N)ncnc32)[C@H](O)[C@@H]1OP(=O)(O)O; together with: PLP).
For `enzyme (Thermothielavioides terrestris, UniProt G2R650)`, the Km was 191 µM (Oc1cc(O)cc(/C=C/c2ccc(O)c(O)c2)c1; pH 8, 45 °C).
With `B2 (enzyme)` the Km was 180 µM (O=C(O)CC(=O)C(=O)O; pH 7.5, 25 °C).
With `enzyme (Salmonella enterica, UniProt P0A2K1)` the Km was 2160 µM (N[C@@H](CO)C(=O)O; pH 7.8, 22 °C, apparent).
`B3` gave a Km of 700 µM (N[C@@H](Cc1ccc(O)cc1)C(=O)O; pH 7.5, 25 °C, together with: PMP 20 µM).
For `B4 (PYCR2 R251C)`, the Km was 1320 µM (O=C(O)[C@@H]1CCC=N1; pH 7.5, 37 °C, apparent, together with: NADH 500 µM).
For `B5 (gdh)`, the Km was 1950 µM (NC(=O)c1ccc[n+]([C@@H]2O[C@H](COP(=O)(O)OP(=O)(O)OC[C@H]3O[C@@H](n4cnc5c(N)ncnc54)[C@H](O)[C@@H]3O)[C@@H](O)[C@H]2O)c1; pH 8, 50 °C).
The Km of `enzyme (Plasmodium falciparum, UniProt C0H484)` is reported as 17 µM (O=P(O)(O)OP(=O)(O)OP(=O)(O)OC[C@H]1O[C@@H](n2cnc3c(O)ncnc32)[C@H](O)[C@@H]1O; together with: Mn2+).
`B6 (SCO6712 V290N)` has a Km of 790 µM (CCn1c(=NN=c2sc3cc(S(=O)(=O)O)ccc3n2CC)sc2cc(S(=O)(=O)O)ccc21; pH 7, 37 °C, NaCl 150 mM, together with: O2 cosubstrate).
For `enzyme Y41F (Homo sapiens, UniProt Q08623)`, the Km was 2.7 µM (O=c1[nH]cc([C@@H]2O[C@H](COP(=O)(O)O)[C@@H](O)[C@H]2O)c(=O)[nH]1; pH 7, 25 °C).
The Km of `B7 (ART1)` is reported as 4100 µM (N=C(N)NCCC[C@H](N)C(=O)O; pH 7.5, 25 °C, HEPES 50 mM, together with: saturating NAD+).
`B8 (enzyme)` gave a Km of 105 µM (C/C(=C\C=C(/O)C(=O)O)C(=O)O; pH 7.3, 24 °C).
`B9 (enzyme C76S)` gave a Km of 13700 µM (O=[N+]([O-])c1ccc(OP(=O)(O)O)cc1; pH 7, 37 °C, together with: Ni2+ 0.25 mM).
The Km of `B10 (enzyme)` is reported as 45 µM (NC(=O)C1=CN([C@@H]2O[C@H](COP(=O)(O)OP(=O)(O)OC[C@H]3O[C@@H](n4cnc5c(N)ncnc54)[C@H](O)[C@@H]3O)[C@@H](O)[C@H]2O)C=CC1; pH 7.5, together with: DHAP 5 mM).
`enzyme (Aspergillus fumigatus, UniProt B0XYS0)` has a Km of 170 µM (CC(C)(CO)[C@@H](O)C(=O)NCCC(=O)O; pH 7.4, 80 °C, together with: ATP 1000 µM).
`B11 (enzyme)` gave a Km of 196 µM (O=C(/C=C/c1ccc(O)cc1)O[C@H](Cc1ccc(O)c(O)c1)C(=O)O; pH 7.5, 30 °C, not purified).
`B12 (enzyme)` has a Km of 640 µM (O=C(O)c1cc(=O)[nH]c(=O)[nH]1; pH 7, room temperature, together with: PRPP 5 mM).
With `enzyme (Parabacteroides distasonis, UniProt A0A7L5EB83)` the Km was 1770 µM (CC(=O)N[C@H]1[C@H](Oc2ccc([N+](=O)[O-])cc2)O[C@H](CO)[C@@H](O[C@@H]2O[C@H](CO)[C@H](O)[C@H](O)[C@H]2O)[C@@H]1O; pH 6, 50 °C).
The Km of `enzyme (Oenococcus oeni, UniProt Q04HQ8)` is reported as 3000 µM (COc1cccc(OC)c1O; pH 3.7, 24 °C, together with: CuSO4 1 mM).

Repeated from above:
For `B5 (gdh)`, the Km was 1950 µM (NC(=O)c1ccc[n+]([C@@H]2O[C@H](COP(=O)(O)OP(=O)(O)OC[C@H]3O[C@@H](n4cnc5c(N)ncnc54)[C@H](O)[C@@H]3O)[C@@H](O)[C@H]2O)c1; pH 8, 50 °C).
`B9 (enzyme C76S)` gave a Km of 13700 µM (O=[N+]([O-])c1ccc(OP(=O)(O)O)cc1; pH 7, 37 °C, together with: Ni2+ 0.25 mM).
